# Experimental data from different studies.
# Compare with care: the assays were run in different laboratories.
Compound,system,setting,measurement,value
C=C[C@@H]1C[C@]1(NC(=O)[C@@H]1C[C@@H]2CN1C(=O)[C@H](C(C)(C)C)NC(=O)O[C@@H]1C[C@H]1CCCCCc1nc3ccc(OC)cc3nc1O2)C(=O)NS(=O)(=O)C1CC1,human K2EDTA plasma,-20 °C,plasma stability,≥ 397 days
CC(=O)c1c(C)c2cnc(Nc3ccc(C4CCN(CCS(C)(=O)=O)CC4)cn3)nc2n(C2CCCC2)c1=O,dog plasma,,plasma stability t1/2,> 6.67 h
O=C(O)Cc1ccccc1,human plasma,"mean, both sexes",plasma concentration,38.1 µM
CC(C)C[C@@H]1NC(=O)[C@H](CC(=O)O)NC(=O)[C@H](Cc2ccccc2)NC(=O)[C@H](Cc2c[nH]cn2)NC(=O)[C@H]([C@@H](C)O)NC(=O)[C@H](Cc2ccccc2)NC(=O)[C@@H](NC(=O)[C@H](C)NC(=O)COCCOCCNC(=O)COCCOCCNC(=O)CC[C@H](NC(=O)CCCCCCCCCCCCCCCCC(=O)O)C(=O)O)CSSC[C@@H](C(=O)O)NC(=O)[C@H](Cc2ccccc2)NC(=O)[C@@H]2CCCN2C(=O)[C@H](Cc2c[nH]c3ccccc23)NC(=O)[C@H](CC(C)C)NC1=O,human plasma,"5 h, 37 °C",plasma stability,stable
Clc1ccc(C(c2ccccc2Cl)C(Cl)Cl)cc1 (stereo not drawn),"human, plasma",sixteen days after treatment end,plasma concentration,12000 ng/mL
CC[C@H](C)CCCCC(=O)N[C@@H](CCN)C(=O)N[C@H](C(=O)N[C@@H](CCN)C(=O)N[C@H]1CCNC(=O)[C@H]([C@@H](C)O)NC(=O)[C@H](CCN)NC(=O)[C@H](CCN)NC(=O)[C@H](CC(C)C)NC(=O)[C@@H](Cc2ccccc2)NC(=O)[C@H](CCN)NC1=O)[C@@H](C)O,"critically ill patients, plasma","intravenous, dose not given, 6 h, steady state, Low AUC group, median",plasma concentration at 6 h,1180 ng/mL
CSCC[C@H](NC(=O)COCCOCCNC(=O)COCCOCCNC(=O)CC[C@H](NC(=O)CCCCCCCCCCCCCCCCC(=O)O)C(=O)O)C(=O)N[C@H]1CSSC[C@@H](C(N)=O)NC(=O)[C@H](Cc2ccccc2)NC(=O)[C@@H]2CCCN2C(=O)[C@H](Cc2c[nH]c3ccccc23)NC(=O)[C@H](CC(C)C)NC(=O)[C@H](CCSC)NC(=O)[C@H](Cc2c[nH]cn2)NC(=O)[C@H](Cc2ccccc2)NC(=O)[C@H](Cc2c[nH]cn2)NC(=O)[C@H]([C@@H](C)O)NC(=O)[C@H](Cc2ccccc2)NC1=O,human plasma,"5 h, 37 °C",plasma stability,stable
CNc1cc[n+](CC(=O)Nc2ccc3c(c2)ncn3-c2c(C)noc2C)cc1.O=C[O-],human plasma,,plasma stability,stable
OCCc1ccc(O)c(O)c1,human plasma,median,plasma concentration,0.0177 µM
CCCCCCCCCCC[C@H](OC1OC[C@H](O)[C@@H](O)[C@@H]1O)[C@H](O)[C@H](O)C[C@@H]1CC(=O)N[C@H](CO)C(=O)N[C@H]([C@H](O)c2ccc(O)cc2)C(=O)N[C@H](CCN)C(=O)NCC(=O)N[C@@H](CC(N)=O)C(=O)N[C@@H](CO)C(=O)N[C@@H]([C@H](O)C(N)=O)C(=O)N1 (stereo partly drawn),"New Zealand white rabbit, female, plasma","intravaginal, 1.5 mg gel daily, 0.5 h",plasma concentration,30.2 ng/mL
CC(=O)N[C@@H](C)C(=O)N[C@H]1CSSC[C@@H](C(=O)O)NC(=O)[C@H](Cc2ccccc2)NC(=O)[C@@H]2CCCN2C(=O)[C@H](Cc2c[nH]c3ccccc23)NC(=O)[C@H](CC(C)C)NC(=O)[C@H](CC(C)C)NC(=O)[C@H](CC(=O)O)NC(=O)[C@H](Cc2ccccc2)NC(=O)[C@H](Cc2c[nH]cn2)NC(=O)[C@H]([C@@H](C)O)NC(=O)[C@H](Cc2ccccc2)NC1=O,human plasma,"5 h, 37 °C",plasma stability,stable
N#C[C@@]1(n2ccc(N)nc2=O)O[C@H](CO)[C@@H](O)[C@H]1O,mouse plasma,"10 µM, 37 °C",plasma stability time,≥ 2 h

# Some of these lines once more:
Compound,system,setting,measurement,value
CC(=O)c1c(C)c2cnc(Nc3ccc(C4CCN(CCS(C)(=O)=O)CC4)cn3)nc2n(C2CCCC2)c1=O,dog plasma,,plasma stability t1/2,> 6.67 h
Clc1ccc(C(c2ccccc2Cl)C(Cl)Cl)cc1 (stereo not drawn),"human, plasma",sixteen days after treatment end,plasma concentration,12000 ng/mL
